Assay results collected from several papers.
A part holds a random share of what one study measured.

Sample 1
Target: Prothrombin, mature alpha-thrombin (F2, Homo sapiens, UniProt P00734)
Technique: aptamer microarray, sandwich
Molecule type: DNA with 2'F-ANA
Sample: in vitro
Tested at: 200 nM
Notes: whole 15-mer aptamer, many near background
Together with: Cy3 exosite-II aptamer, 400 nM
Reading: higher = stronger binding
Sequence | mean fluorescence intensity [a.u.]
GGTTGGTGTGGTTGG (2'F-ANA at 1 2 3 4 6 8 10 12) | 66.6
GGTTGGTGTGGTTGG (2'F-ANA at 3 5 7 8 11 13 14 15) | 79.7
GGTTGGTGTGGTTGG (2'F-ANA at 1 2 4 6 9 10 14 15) | 49.4
GGTTGGTGTGGTTGG (2'F-ANA at 1 2 3 5 7 9 10 11 13 15) | 59.2

Sample 2
Target: Histone acetyltransferase KAT6A, winged helix 1, GST fusion (KAT6A, Homo sapiens, UniProt Q92794, residues 1-85)
Technique: protein binding microarray
Molecule type: double-stranded DNA, one strand shown
Sample: in vitro
Tested at: not given
Notes: 8-mer, flanks averaged, mean of 2 arrays, mostly near background
Reference: not given
Reading: higher = stronger binding
Residues (chain): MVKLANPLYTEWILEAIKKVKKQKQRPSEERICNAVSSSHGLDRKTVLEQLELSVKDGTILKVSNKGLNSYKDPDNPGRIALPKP
Sequence | E-score
CATCAGAG | -0.0483
GCTCTGCC | -0.065
AAAAGCCC | -0.123
TAAGGTAA | -0.102
CGACGTAG | 0.112

Sample 3
Target: Interferon regulatory factor 7, full length, phosphomimetic (IRF7, Homo sapiens, UniProt Q92985, residues 1-503, S101K/S471D/S472D/S475D/S476D/S477D/S483D/S484D/S487D)
Sequence of UniProt Q92985 (whole entry, unmodified, looked up): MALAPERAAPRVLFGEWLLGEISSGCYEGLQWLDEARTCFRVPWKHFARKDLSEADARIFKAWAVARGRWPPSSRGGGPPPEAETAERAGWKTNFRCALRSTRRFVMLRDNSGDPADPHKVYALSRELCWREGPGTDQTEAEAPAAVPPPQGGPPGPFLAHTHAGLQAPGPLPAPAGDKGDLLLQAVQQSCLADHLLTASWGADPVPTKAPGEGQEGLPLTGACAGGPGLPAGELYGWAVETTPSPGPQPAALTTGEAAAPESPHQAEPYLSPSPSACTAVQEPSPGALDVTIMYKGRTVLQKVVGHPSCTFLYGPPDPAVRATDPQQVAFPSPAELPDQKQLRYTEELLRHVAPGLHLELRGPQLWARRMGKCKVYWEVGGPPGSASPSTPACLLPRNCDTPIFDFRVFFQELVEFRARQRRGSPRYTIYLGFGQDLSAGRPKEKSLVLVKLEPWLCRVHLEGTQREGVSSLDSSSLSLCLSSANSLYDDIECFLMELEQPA
Technique: protein-binding microarray
Molecule type: double-stranded DNA, one strand shown
Sample: in vitro
Tested at: 250 nM
Notes: 60-bp whole probe
Together with: salmon DNA 0.4 mg/ml
Reference: random background probes
Reading: higher = stronger binding
All sequences stand within: GCCTAGCAC … GTCTTGATTCGCTTGACGCTGCTG
Sequence | log fluorescence [z-score]
TTAGATCTCAGTTTGGATTAGTGCTAG | 0.241
TCAAATTTAGAAAATGGAACTGTGCTA | 0.152
GTCGGTATCGGGACTGGGGACGTGCTA | 0.131
TTAGCTTTCGGGTTTCGATTAGTGCTA | 7.38
TGGTCTTTCCACTTTCTTTTGTGCTAG | 1.57

Single results of other studies
Molecule | target | assay | test system | setting | scale | endpoint | value
PhoQ, residues 284 288 289 292 302 303 SNGLAW | PhoP, residues 12 14 15 18 19 SYFRT (Escherichia coli, UniProt P23836) | Sort-seq, measured: YFP reporter | E. coli | PhoQ-PhoP variant library, together with: 10 µM Mg2+ | reference: high Mg2+ state, higher = stronger signaling | fold induction | 13.3

Excerpt of the above (sample 1):
Sequence | mean fluorescence intensity [a.u.]
GGTTGGTGTGGTTGG (2'F-ANA at 1 2 3 5 7 9 10 11 13 15) | 59.2
